Assay results gathered from unrelated publications.
Compare with care: the assays were run in different laboratories. ± marks the error that the study gave.

SMILES	assay	test system	conditions	how to read	quantity	value
CC(C)C[C@H](NC(=O)[C@H](CCCCN)NC(=O)[C@H](C)NC(=O)[C@@H]1CCCN1C(=O)[C@@H]1CCCN1C(=O)[C@H](CCCCN)NC(=O)[C@H](CCCCN)NC(=O)[C@H](CO)NC(=O)[C@H](CCC(=O)O)NC(=O)[C@H](CCCCN)NC(=O)[C@H](CCCNC(=N)N)NC(=O)[C@H](CCC(N)=O)NC(=O)[C@H](CCC(N)=O)NC(=O)[C@@H](NC(=O)[C@H](CCCNC(=N)N)NC(=O)[C@H](CCC(N)=O)NC(=O)[C@H](Cc1cnc[nH]1)NC(=O)[C@H](CCC(=O)O)NC(=O)[C@@H]1CCCN1C(=O)[C@H](CO)NC(=O)[C@H](CC(C)C)NC(=O)[C@H](Cc1ccccc1)NC(=O)[C@H](CO)NC(=O)[C@H](CO)NC(=O)CN)C(C)C)C(=O)N[C@@H](CCC(N)=O)C(=O)N1CCC[C@H]1C(=O)N[C@@H](CCCNC(=N)N)C(=O)O		human		reference: compound over acyl ghrelin	half-life ratio	~3 fold
CC[C@H](C)C(=O)N1CCC(NC(=O)Nc2ccc(OC(F)(F)F)c(F)c2)CC1		human	oral, 2 mg, single dose, mean		half-life	143 h
CC1(C)C(=O)N(c2ccc(C#N)c(C(F)(F)F)c2)C(=S)N1c1ccc(C(N)=O)c(F)c1		human, male, plasma	oral, 160 mg, single dose, after high-fat meal		half-life	203 ± 50.9 h
C[C@H](NP(=O)(O)OC[C@H]1O[C@@](C#N)(c2ccc3c(N)ncnn23)[C@H](O)[C@@H]1O)C(=O)O		human, both sexes	dose not given		half-life	~1.25 h
CC(=CCC(O)C(C)=Cc1csc(C)n1)CC=CC(C)C(O)C(C)C(=O)C(C)(C)C(O)CC(=O)O (stereo not drawn)		human, plasma	intravenous infusion, 42 mg/m2 KOS-1584, 3 h infusion, cycle 1		half-life	24.1 ± 16.2 h
CCCCCCCC(=O)OC[C@H](NC(=O)[C@H](CO)NC(=O)CN)C(=O)N[C@@H](Cc1ccccc1)C(=O)N[C@@H](CC(C)C)C(=O)N[C@@H](CO)C(=O)N1CCC[C@H]1C(=O)N[C@@H](CCC(=O)O)C(=O)N[C@@H](Cc1cnc[nH]1)C(=O)N[C@@H](CCC(N)=O)C(=O)N[C@@H](CCCNC(=N)N)C(=O)N[C@H](C(=O)N[C@@H](CCC(N)=O)C(=O)N[C@@H](CCC(N)=O)C(=O)N[C@@H](CCCNC(=N)N)C(=O)N[C@@H](CCCCN)C(=O)N[C@@H](CCC(=O)O)C(=O)N[C@@H](CO)C(=O)N[C@@H](CCCCN)C(=O)N[C@@H](CCCCN)C(=O)N1CCC[C@H]1C(=O)N1CCC[C@H]1C(=O)N[C@@H](C)C(=O)N[C@@H](CCCCN)C(=O)N[C@@H](CC(C)C)C(=O)N[C@@H](CCC(N)=O)C(=O)N1CCC[C@H]1C(=O)N[C@@H](CCCNC(=N)N)C(=O)O)C(C)C	ELISA	healthy humans, both sexes, plasma	continuous intravenous infusion, 1 µg/kg/h, 65 min		half-life	0.183 ± 0.0667 h
CC(C)C[C@@H](NC(=O)[C@@H](Cc1ccccc1)NC(=O)[C@H](N)Cc1ccccc1)C(=O)N[C@H](CCCCN)C(=O)N1CCC(N)(C(=O)O)CC1		human, plasma	intravenous, 5 µg/kg		half-life	2 h
CC1(C)C(=O)N(c2ccc(C#N)c(C(F)(F)F)c2)C(=S)N1c1ccc(C(=O)O)c(F)c1		human, male, plasma	oral, 160 mg, single dose, after high-fat meal		half-life	215 ± 77 h
CCCCCCCCCCCCCCCC(=O)N[C@@H](CCC(=O)NCCCC[C@H](NC(=O)[C@H](CC(=O)O)NC(=O)[C@H](CO)NC(=O)[C@@H](NC(=O)[C@H](Cc1ccccc1)NC(=O)[C@@H](NC(=O)CNC(=O)[C@H](CCC(N)=O)NC(=O)[C@H](C)NC(=O)[C@@H](Cc1ccc(O)cc1)NC(C)=O)[C@@H](C)O)[C@@H](C)O)C(=O)N[C@@H](CO)C(=O)N[C@@H](CCCCN)C(=O)N[C@@H](Cc1ccc(O)cc1)C(=O)N[C@@H](CC(C)C)C(=O)N[C@@H](CC(=O)O)C(=O)N[C@@H](CCC(=O)O)C(=O)N[C@@H](CCCNC(=N)N)C(=O)N[C@@H](C)C(=O)N[C@@H](C)C(=O)N[C@@H](CCC(N)=O)C(=O)N[C@@H](CC(=O)O)C(=O)N[C@@H](Cc1ccccc1)C(=O)N[C@H](C(=O)N[C@@H](CCC(N)=O)C(=O)N[C@@H](Cc1c[nH]c2ccccc12)C(=O)N[C@@H](CC(C)C)C(=O)N[C@@H](CC(C)C)C(=O)N[C@@H](CCC(=O)O)C(=O)NCC(=O)NCC(=O)N1CCC[C@H]1C(=O)N[C@@H](CO)C(=O)N[C@@H](CO)C(=O)NCC(=O)N[C@@H](C)C(=O)N1CCC[C@H]1C(=O)N1CCC[C@H]1C(=O)N1CCC[C@H]1C(=O)N[C@@H](CO)C(N)=O)C(C)C)C(=O)O	single ascending dose	human	subcutaneous, 15 to 300 µg, geometric mean range		half-life	13.8 to 17.6 h
